Published values from different studies.
Each numbered part is a random draw from the data of one study; scales do not carry over between parts.
UniProt Q9UK32, sequence (whole entry, looked up): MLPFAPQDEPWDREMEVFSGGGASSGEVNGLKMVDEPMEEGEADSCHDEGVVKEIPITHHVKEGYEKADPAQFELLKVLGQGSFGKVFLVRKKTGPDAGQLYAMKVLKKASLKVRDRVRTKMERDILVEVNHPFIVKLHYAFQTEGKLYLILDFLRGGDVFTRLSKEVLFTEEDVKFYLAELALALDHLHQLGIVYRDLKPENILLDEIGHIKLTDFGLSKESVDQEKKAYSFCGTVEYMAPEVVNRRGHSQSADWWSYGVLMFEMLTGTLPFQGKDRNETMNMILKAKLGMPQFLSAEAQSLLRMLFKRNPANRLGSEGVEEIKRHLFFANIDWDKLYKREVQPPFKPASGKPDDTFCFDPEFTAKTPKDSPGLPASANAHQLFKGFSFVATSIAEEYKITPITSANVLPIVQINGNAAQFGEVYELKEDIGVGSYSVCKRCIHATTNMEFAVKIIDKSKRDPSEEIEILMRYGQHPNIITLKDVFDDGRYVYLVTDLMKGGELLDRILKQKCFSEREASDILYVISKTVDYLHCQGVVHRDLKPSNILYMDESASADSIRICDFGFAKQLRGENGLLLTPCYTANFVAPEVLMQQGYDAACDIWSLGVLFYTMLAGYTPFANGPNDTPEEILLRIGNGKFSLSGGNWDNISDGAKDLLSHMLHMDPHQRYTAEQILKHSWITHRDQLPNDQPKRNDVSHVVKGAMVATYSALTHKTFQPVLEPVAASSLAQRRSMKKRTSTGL
UniProt Q9UM73, sequence (whole entry, unmodified, looked up): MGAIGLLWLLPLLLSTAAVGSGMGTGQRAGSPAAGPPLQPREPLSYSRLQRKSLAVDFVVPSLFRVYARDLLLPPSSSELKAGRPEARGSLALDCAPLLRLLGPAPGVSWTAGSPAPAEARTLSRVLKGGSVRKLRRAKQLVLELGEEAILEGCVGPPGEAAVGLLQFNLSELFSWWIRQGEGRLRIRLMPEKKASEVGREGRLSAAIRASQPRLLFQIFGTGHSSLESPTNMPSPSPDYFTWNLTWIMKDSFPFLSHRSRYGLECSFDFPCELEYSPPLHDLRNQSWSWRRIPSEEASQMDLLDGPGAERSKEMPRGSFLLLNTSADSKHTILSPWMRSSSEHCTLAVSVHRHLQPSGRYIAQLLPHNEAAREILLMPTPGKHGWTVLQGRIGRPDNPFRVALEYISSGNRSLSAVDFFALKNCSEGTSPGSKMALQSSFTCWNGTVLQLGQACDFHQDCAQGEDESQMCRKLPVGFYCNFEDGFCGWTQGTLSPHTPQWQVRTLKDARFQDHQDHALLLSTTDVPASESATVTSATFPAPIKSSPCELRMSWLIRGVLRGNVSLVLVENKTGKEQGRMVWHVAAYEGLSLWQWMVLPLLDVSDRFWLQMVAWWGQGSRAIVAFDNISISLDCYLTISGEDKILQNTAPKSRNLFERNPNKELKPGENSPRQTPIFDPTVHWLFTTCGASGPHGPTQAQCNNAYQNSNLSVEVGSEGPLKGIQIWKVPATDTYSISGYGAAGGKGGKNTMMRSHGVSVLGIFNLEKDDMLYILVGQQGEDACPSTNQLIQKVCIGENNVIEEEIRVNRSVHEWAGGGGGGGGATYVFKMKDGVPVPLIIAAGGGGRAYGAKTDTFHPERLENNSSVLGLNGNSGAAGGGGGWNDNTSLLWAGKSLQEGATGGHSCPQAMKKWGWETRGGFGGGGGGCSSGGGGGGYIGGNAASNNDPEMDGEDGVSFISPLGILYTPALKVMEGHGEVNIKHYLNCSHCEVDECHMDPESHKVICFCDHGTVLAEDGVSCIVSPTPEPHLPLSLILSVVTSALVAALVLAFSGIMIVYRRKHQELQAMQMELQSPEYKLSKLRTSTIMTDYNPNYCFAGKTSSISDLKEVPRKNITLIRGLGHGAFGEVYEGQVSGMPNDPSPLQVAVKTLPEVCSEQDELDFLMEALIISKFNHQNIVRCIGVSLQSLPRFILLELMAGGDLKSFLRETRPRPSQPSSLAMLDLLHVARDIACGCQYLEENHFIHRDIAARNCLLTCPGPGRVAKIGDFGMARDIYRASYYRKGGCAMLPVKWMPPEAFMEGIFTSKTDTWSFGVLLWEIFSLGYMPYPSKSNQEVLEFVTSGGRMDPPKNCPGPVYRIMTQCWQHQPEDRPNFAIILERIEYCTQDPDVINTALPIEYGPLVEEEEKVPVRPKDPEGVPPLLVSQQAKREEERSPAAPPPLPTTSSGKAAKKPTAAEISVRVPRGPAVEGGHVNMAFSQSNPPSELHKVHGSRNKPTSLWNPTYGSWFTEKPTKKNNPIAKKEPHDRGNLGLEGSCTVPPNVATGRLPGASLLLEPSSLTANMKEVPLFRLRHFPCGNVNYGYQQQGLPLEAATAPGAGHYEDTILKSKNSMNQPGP
UniProt Q13237, sequence (whole entry, looked up): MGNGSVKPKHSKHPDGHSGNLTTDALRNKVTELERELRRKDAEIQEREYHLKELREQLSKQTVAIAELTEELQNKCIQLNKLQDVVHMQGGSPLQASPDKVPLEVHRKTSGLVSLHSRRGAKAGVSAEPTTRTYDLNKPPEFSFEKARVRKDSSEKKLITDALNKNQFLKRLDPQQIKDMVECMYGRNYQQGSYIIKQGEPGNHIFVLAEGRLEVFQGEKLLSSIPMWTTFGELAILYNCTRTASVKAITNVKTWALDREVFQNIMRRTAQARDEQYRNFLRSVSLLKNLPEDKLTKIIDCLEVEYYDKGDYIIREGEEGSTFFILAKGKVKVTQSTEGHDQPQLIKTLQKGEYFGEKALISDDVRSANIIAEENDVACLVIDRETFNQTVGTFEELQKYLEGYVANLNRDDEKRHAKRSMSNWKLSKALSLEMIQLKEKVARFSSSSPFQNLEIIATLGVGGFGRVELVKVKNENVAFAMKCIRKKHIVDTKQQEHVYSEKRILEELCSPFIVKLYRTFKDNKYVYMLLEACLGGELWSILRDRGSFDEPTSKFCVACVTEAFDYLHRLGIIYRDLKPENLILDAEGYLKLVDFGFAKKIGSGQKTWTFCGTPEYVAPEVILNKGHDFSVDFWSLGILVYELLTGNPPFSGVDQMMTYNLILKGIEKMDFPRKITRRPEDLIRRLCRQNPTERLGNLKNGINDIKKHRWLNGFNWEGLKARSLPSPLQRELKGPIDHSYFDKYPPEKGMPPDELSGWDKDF
UniProt P42336, sequence (whole entry, unmodified, looked up): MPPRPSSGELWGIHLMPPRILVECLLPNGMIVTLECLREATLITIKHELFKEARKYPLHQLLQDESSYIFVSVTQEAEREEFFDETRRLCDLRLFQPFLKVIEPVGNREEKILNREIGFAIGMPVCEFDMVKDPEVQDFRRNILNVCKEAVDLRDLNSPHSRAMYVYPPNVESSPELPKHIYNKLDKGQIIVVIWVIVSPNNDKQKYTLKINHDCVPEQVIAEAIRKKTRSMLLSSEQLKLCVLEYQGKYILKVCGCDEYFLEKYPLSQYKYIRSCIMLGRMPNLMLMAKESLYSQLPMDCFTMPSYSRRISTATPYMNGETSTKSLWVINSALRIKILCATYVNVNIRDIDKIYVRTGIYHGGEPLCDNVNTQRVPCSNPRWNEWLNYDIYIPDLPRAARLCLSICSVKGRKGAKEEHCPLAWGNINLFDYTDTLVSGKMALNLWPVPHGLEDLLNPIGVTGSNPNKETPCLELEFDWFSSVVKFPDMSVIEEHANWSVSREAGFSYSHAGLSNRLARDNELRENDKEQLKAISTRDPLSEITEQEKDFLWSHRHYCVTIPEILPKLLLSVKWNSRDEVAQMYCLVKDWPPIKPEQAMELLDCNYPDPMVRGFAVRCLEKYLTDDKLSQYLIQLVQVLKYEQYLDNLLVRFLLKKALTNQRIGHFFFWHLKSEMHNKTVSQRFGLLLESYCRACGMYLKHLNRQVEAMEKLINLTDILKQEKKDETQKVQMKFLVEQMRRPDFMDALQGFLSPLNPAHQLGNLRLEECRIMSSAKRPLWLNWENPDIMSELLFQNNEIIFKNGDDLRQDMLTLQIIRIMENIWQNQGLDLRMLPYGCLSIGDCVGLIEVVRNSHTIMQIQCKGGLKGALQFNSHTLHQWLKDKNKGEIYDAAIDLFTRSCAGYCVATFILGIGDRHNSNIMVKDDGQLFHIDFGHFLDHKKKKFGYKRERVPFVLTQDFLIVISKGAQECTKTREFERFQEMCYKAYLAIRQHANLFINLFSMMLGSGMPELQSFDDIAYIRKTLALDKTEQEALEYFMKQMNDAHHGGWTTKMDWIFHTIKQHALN
UniProt Q6XUX3, sequence (whole entry, looked up): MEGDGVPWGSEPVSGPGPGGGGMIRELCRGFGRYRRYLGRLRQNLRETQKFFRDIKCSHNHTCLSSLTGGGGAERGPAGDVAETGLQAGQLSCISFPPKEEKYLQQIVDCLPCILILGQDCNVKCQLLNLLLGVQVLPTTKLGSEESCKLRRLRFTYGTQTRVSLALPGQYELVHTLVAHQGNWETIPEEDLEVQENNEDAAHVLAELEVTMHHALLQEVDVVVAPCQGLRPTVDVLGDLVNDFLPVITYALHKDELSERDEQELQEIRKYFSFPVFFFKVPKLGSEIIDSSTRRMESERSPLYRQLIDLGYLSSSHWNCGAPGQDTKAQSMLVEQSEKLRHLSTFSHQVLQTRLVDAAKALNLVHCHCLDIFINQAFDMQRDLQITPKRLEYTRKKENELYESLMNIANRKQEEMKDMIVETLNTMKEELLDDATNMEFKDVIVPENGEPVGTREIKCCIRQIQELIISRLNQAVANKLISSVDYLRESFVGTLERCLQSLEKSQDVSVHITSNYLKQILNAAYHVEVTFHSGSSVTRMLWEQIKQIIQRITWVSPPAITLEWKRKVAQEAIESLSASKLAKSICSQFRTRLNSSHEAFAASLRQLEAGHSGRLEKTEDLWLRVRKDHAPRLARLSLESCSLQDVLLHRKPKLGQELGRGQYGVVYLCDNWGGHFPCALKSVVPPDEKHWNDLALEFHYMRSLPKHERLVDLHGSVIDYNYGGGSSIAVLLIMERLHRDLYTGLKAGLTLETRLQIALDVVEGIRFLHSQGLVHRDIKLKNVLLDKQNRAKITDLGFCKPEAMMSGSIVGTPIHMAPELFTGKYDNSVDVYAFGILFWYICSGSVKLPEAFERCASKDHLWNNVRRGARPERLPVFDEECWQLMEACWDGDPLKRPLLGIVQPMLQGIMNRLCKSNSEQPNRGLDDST

Set 1
Organism: Plasmodium berghei
Mode: inhibitor
Cell line: Huh-7
Strain: liver stage
Tested at: 10 µM
Time: 24 h
Reference: untreated control
With `Nc1cc(N2CCCCC2)nc(N)[n+]1[O-]` the infection rate was 102%.
`CCN(CC)CCNC(=O)c1cc(Cl)c(N)cc1OC` gave an infection rate of 101%.
With `N=C(N)N/N=C/c1c(Cl)cccc1Cl` the infection rate was 74.5%.
With `c1ccc([C@H]2CN3CCSC3=N2)cc1` the infection rate was 90%.

Set 2
Cell line: HaCaT
Tested at: 100 µM
Time: 18 h
With `CCN(CC)CCNC(C(=O)OCCC(C)C)c1ccccc1` (centres unmarked) the viability was 111%.
`O=C[C@H](O)[C@@H](O)[C@H](O)[C@H](O)CO` has a viability of 93.6%.
`CN(C)c1ccc(O)c2c1C[C@H]1C[C@H]3[C@H](N(C)C)C(O)=C(C(N)=O)C(=O)[C@@]3(O)C(O)=C1C2=O` has a viability of 108%.

Set 3
Species: human
Medium: microsomes or S9
Tested at: 2 µM
Time: 0.5 h
The remaining compound of `Cn1c(=O)c(-c2ccc3ccccc3n2)cc2cc(Br)ccc21` is reported as 6.58%.
`Cc1cc(OC2CN(S(=O)(=O)N(C)C)C2)cc(=O)n1C` has a remaining compound of 99.5%.
With `CN1CCN(c2nsc(-c3ccccc3)c2C#N)CC1` the remaining compound was 32.1%.
For `CCOc1ccc(C(=O)N2CCc3cc(OC)c(OC)cc3C2CC2CC3c4cc(OC)c(OC)cc4CCN3CC2CC)cc1` (centres unmarked), the remaining compound was 5.3%.

Set 4
SMILES: CCS(=O)(=O)c1cc2cc(C[C@](O)(CC(C)(C)c3ccc(F)cc3C(N)=O)C(F)(F)F)[nH]c2cn1
Effect on: cell-free assay
Technique: competition with immobilised ligand
Tested at: 1 µM
CDK8 (Homo sapiens, UniProt P49336) — remaining binding: 100%.
It gave 93% for remaining binding (MAP3K19 (Homo sapiens, UniProt Q56UN5)).
It gave 100% for remaining binding (Tyrosine-protein kinase ABL1, non-phosphorylated (ABL1, Homo sapiens, UniProt P00519, H396P)).
For DSTYK (Homo sapiens, UniProt Q6XUX3): remaining binding read 86%.
The remaining binding was 91% (Aurora kinase C (AURKC, Homo sapiens, UniProt Q9UQB9)).
MAP3K12 (Homo sapiens, UniProt Q12852) — remaining binding: 100%.
It gave 93% for remaining binding (Non-receptor tyrosine-protein kinase TYK2, JH2 (TYK2, Homo sapiens, UniProt P29597)).
The remaining binding was 100% (PIK3CA (Homo sapiens, UniProt P42336, H1047Y)).
The remaining binding was 85% (PRKG2 (Homo sapiens, UniProt Q13237)).
It gave 100% for remaining binding (STK10 (Homo sapiens, UniProt O94804)).
The remaining binding was 100% (FLT3 (Homo sapiens, UniProt P36888, K663Q)).
PHKG1 (Homo sapiens, UniProt Q16816) — remaining binding: 66%.
It gave 93% for remaining binding (Ribosomal protein S6 kinase alpha-3, C-terminal kinase domain (RPS6KA3, Homo sapiens, UniProt P51812)).
For Ribosomal protein S6 kinase alpha-6, C-terminal kinase domain (RPS6KA6, Homo sapiens, UniProt Q9UK32): remaining binding read 100%.
It gave 87% for remaining binding (ALK (Homo sapiens, UniProt Q9UM73, L1196M)).
BMP2K (Homo sapiens, UniProt Q9NSY1) — remaining binding: 83%.

Set 5
Cell line: mouse MPNST tumor cells
Technique: high-content nuclear imaging
Measured: cell number
Tested at: 10 µM
Time: 12 h
Notes: mean of 2 replicates
Reference: plate mean
Reading: higher = more cells
`Cc1cc(C)cc(NC(=O)Nc2ccc(OS(N)(=O)=O)cc2)c1` has a nuclei count of 1.77 z-score.
For `O=C(OCCOCCO)c1ccccc1Nc1cccc(C(F)(F)F)c1`, the nuclei count was 1.06 z-score.
The nuclei count of `CN(C)CCN(Cc1ccccc1)c1ccccn1` is reported as 0.988 z-score.
The nuclei count of `C1CCC(N=C(NC23CC4CC(CC(C4)C2)C3)N2CCOCC2)CC1` is reported as -0.201 z-score.

Other studies, line by line
With `O=C1CCC(N2Cc3cc(C4CCN(Cc5ccccc5)CC4)ccc3C2=O)C(=O)N1` (centres unmarked) the AUC(0-inf) was 308 ng·h/mL (mouse, ICR, male, plasma; intravenous, 1.0 mg/kg).

Repeated from above (set 4):
The remaining binding was 91% (Aurora kinase C (AURKC, Homo sapiens, UniProt Q9UQB9)).
It gave 100% for remaining binding (STK10 (Homo sapiens, UniProt O94804)).
CDK8 (Homo sapiens, UniProt P49336) — remaining binding: 100%.
